Experimental data gathered from unrelated publications.
Each numbered part is a random draw from the data of one study; scales do not carry over between parts. Substitutions count along the parent as printed.

Block 1 — technique: competition protein-binding microarray; form: double-stranded DNA, one strand shown; matrix: in vitro; concentration: 2 µM; together with: Pho4 competitor, 0.05 µM; reading: higher = stronger binding; measurement: fluorescence intensity
Target: Centromere-binding protein 1, full length, His-tagged (CBF1, Saccharomyces cerevisiae, UniProt P17106, residues 1-351)
Sequence of UniProt P17106 (whole entry, looked up): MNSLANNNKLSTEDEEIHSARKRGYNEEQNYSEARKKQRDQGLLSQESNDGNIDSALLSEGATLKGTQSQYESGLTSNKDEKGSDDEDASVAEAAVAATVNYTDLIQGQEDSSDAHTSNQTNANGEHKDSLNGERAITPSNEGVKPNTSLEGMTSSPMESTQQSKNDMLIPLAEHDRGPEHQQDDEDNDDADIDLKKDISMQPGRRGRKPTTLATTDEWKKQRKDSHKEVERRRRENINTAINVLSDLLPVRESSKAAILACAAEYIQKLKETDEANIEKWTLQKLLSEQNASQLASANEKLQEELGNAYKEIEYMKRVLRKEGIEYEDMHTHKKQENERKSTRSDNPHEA
Notes: whole 60-bp probe, lowest competitor level
AAATTACTAAGTTGCCACGTGTTTTACCCCGTATGAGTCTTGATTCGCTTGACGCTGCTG: 1220 a.u.
CGTCCTAGCGATTGACACGTGTTTTCCATGAGGAAGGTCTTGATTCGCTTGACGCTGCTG: 1620 a.u.
CGTCCTAGTGATTTTCACGTGGAATCCATGAGGAAGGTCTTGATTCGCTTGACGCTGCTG: 566 a.u.
CCCGAACTTTTTTAGCACGTGAAAATGGAGAAGTCTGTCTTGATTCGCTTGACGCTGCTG: 2030 a.u.
GAATGACTAAAGTCCCACGTTTTTCCCACTTTTAGTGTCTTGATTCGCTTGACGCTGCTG: 116 a.u.
CCTACCATTGCATCGGGCGTGATGGTACACCAACCAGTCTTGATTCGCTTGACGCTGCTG: 81.1 a.u.
GTCTTGTCTCATTGTCACGGAACTTTCCCCACTTCAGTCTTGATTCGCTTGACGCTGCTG: 112 a.u.
TGCGCAACAACTTGTCACGACACTTTATGTCTAGAAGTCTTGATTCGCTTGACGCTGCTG: 205 a.u.

Block 2 — target: CCNE1, cyclin fold, Cln2 fusion (human); technique: yeast growth competition, sequencing; matrix: yeast; notes: strong parent motif; relative to: not given; reading: higher = stronger binding; measurement: normalised enrichment score
Starting sequence: viral docking peptide; KGVKRKLFAEDSS; partner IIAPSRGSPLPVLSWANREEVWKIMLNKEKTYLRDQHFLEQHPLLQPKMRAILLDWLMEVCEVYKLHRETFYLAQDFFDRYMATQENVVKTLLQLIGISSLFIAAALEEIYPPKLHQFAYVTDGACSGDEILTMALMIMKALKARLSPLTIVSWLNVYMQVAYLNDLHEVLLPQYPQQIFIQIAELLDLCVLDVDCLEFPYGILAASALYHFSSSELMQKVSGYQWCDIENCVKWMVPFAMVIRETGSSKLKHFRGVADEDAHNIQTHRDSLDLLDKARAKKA
KGVKRKLFAEDAS [S12A]: 7.62
KGVKRKLFFEDSS [A9F]: 6.84
KGVFRKLFAEDSS [K4F]: 3.54

Block 3 — technique: RNAcompete; form: RNA; matrix: in vitro; concentration: 20 nM; notes: 7-mer, probes averaged, single round; relative to: mean of 7-mers; reading: higher = stronger binding; measurement: 7-mer Z-score
Target: PABPC1L2, full length, GST fusion (mouse, UniProt A0ABA7IW68)
Target sequence (chain): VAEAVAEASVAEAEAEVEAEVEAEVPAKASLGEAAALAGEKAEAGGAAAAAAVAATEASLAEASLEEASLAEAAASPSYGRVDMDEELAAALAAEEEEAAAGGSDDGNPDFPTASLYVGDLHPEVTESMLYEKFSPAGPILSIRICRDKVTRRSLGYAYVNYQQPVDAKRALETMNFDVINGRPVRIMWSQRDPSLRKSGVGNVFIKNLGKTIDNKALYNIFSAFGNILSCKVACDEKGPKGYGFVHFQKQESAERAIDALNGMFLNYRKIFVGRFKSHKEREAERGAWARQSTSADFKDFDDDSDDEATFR
AAGUUGG: 0.126
AACCCGU: -0.124
CAGAAAU: 1.16
CACUCGU: -0.325
GAGUGGG: 0.0696
CGUAAUA: -0.0863
ACGAUGC: -0.0754
AUAAUGA: 0.0406

Block 4 — target: UBE2A UBC core domain (UniProt P49459); technique: yeast two-hybrid; matrix: yeast; notes: mostly zero background; relative to: not given; reading: higher = stronger interaction; measurement: lacZ reporter activity
Sequence of UniProt P49459 (whole entry, looked up): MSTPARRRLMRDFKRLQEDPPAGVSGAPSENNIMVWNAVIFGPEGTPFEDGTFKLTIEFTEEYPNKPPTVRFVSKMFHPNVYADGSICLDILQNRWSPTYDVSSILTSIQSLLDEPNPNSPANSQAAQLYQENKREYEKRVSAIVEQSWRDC
B1: RNF4 RING domain (UniProt P78317); chain TGLRPSGTVSCPICMDGYSEIVQNGRLIVSTECGHVFCSQCLRDSLKNANTCPTCRKKINHKRYHP
B2: RNF32 RING domain (UniProt Q9H0A6); chain SLLQGDSVQPCPICKEEFELRPQVLLSCSHVFHKACLQAFEKFTNKKTCPLCRKNQYQTRVIH
B3: ANKIB1 RING domain (UniProt Q9P2G1); chain LSPGDLDTSLCDICMCSISVFEDPVDMPCGHDFCRGCWESFLNLKIQEGEAHNIFCPAYDCFQLVPVDIIE
B4: TRIM35 RING domain (UniProt Q9UPQ4); chain PSRSFKEELLCAVCYDPFRDAVTLRCGHNFCRGCVSRCWEVQVSPTCPVCKDRASPADLRT
B5: RNF112 RING domain (UniProt Q9ULX5); chain QPMAPRELPTCSICLERLRDPISLDCGHDFCIRCFSTHRLPGCEPPCCPECRKICKQKRGLR
B6: TRIM3 RING domain (UniProt O75382); chain VQPMDKQFLVCSICLDRYQCPKVLPCLHTFCERCLQNYIPAQSLTLSCPVCRQTSILPEQGV
B7: PEX2 RING domain (UniProt P28328); chain DNTLATSGKECALCGEWPTMPHTIGCEHIFCYFCAKSSFLFDVYFTCPKCGTEVHSLQPLK
B8: UBE4A RING domain (UniProt Q14139); chain LQQQEEETYADACDEFLDPIMSTLMCDPVVLPSSRVTVDRSTIARHLLSDQTDPFNRSPLTMDQIRPNTELKEKIQRWLAERKQQKEQLE
B9: RNF175 RING domain (UniProt Q8N4F7); chain LPTRSLSDNICAVCGQKIIVELDEEGLIENTYQLSCNHVFHEFCIRGWCIVGKKQTCPYCKEKVDLKRMIS
B10: TRIM15 RING domain (UniProt Q9C019); chain SLKVVHELPACTLCAGPLEDAVTIPCGHTFCRLCLPALSQMGAQSSGKILLCPLCQEEEQAETPMA
B11: RNF149 RING domain (UniProt Q8NC42); chain EKGIDVDAENCAVCIENFKVKDIIRILPCKHIFHRICIDPWLLDHRTCPMCKLDVIKALGYW
B12: RNF150 RING domain (UniProt Q9ULK6); chain DKETESDFDNCAVCIEGYKPNDVVRILPCRHLFHKSCVDPWLLDHRTCPMCKMNILKALGIP
B1 (RNF4 RING domain): 0
LKQVSIRENCCSLCCDEVADTQLKPCGHSDLCMDCALQLETCPLCRKEIVSRIRQI (RSPRY1 RING domain (UniProt Q96DX4)): 0
B2 (RNF32 RING domain): 0
B3 (ANKIB1 RING domain): 0
B4 (TRIM35 RING domain): 0
B5 (RNF112 RING domain): 0
MANWVFCNRCFQPPHRTSCFSLTNCGHVYCDACLGKGKKNECLICKAPCRTVLLSK (RNF212 RING domain (UniProt Q495C1)): 0
KIKDLNEHIVCCLCAGYFVDATTITECLHTFCKSCIVKYLQTSKYCPMCNIKIHETQPLL (PCGF1 RING domain (UniProt Q9BSM1)): 0
B6 (TRIM3 RING domain): 0
ISNDSETLEECMVCSDMKRDTLFGPCGHIATCSLCSPRVKKCLICKEQVQSRTKIE (MIB1 RING domain (UniProt Q86YT6)): 0
FLKKLEQSFMCVCCQELVYQPVTTECFHNVCKDCLQRSFKAQVFSCPACRHDLGQNYIMI (UHRF2 RING domain (UniProt Q96PU4)): 0
B7 (PEX2 RING domain): 0
B8 (UBE4A RING domain): 0
SYEDKSNDFVCPICFDMIEEAYMTKCGHSFCYKCIHQSLEDNNRCPKCNYVVDNIDHLY (COP1 RING domain (UniProt Q8NHY2)): 0
QLQDEEDDSLCRICMDAVIDCVLLECGHMVTCTKCGKRMSECPICRQYVVRAVHVF (RNF34 RING domain (UniProt Q969K3)): 0
B9 (RNF175 RING domain): 0
B10 (TRIM15 RING domain): 0
B11 (RNF149 RING domain): 0
B12 (RNF150 RING domain): 0

Further values, each from its own experiment — cell line: HEK-293T/ACE2; technique: Hoechst nuclei count; concentration: concentration not given; time: 16 (unit not given); relative to: vehicle
NC(=O)c1cn(Cc2c(F)cccc2F)nn1 — viability: 107%
COc1cc2nc(N3CCN(C(=O)C4COc5ccccc5O4)CC3)nc(N)c2cc1OC (stereo not shown) — viability: 97.8%

Repeated from above (block 1):
GTCTTGTCTCATTGTCACGGAACTTTCCCCACTTCAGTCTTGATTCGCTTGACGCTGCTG: 112 a.u.
TGCGCAACAACTTGTCACGACACTTTATGTCTAGAAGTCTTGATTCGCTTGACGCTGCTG: 205 a.u.
CCCGAACTTTTTTAGCACGTGAAAATGGAGAAGTCTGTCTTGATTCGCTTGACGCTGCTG: 2030 a.u.
